Measured values pooled from the literature.
Lines come from different studies, so protocols differ. ± marks the error that the study gave.
PIK3CA: Phosphatidylinositol 4,5-bisphosphate 3-kinase catalytic subunit alpha isoform (PIK3CA, Homo sapiens, UniProt P42336)
Slc6a4: Sodium-dependent serotonin transporter (Slc6a4, Rattus norvegicus, UniProt P31652)
SIGMAR1: Sigma non-opioid intracellular receptor 1 (SIGMAR1, Homo sapiens, UniProt Q99720)

| SMILES | tested on | test | system | setting | scale | quantity | value |
| --- | --- | --- | --- | --- | --- | --- | --- |
| Nc1ncc(-c2nc(N3CCOCC3)nc(N3CCN(C(=O)CCC(=O)NCCCCCCCNc4cccc5c4C(=O)N(C4CCC(=O)NC4=O)C5=O)CC3)n2)c(C(F)F)n1 (stereo not drawn) | PIK3CA | ligand displacement, TR-FRET |  |  |  | Ki | 0.00184 µM |
| C=C(NC(=O)c1csc(-c2nc3c(cc2O)-c2nc(cs2)C(=O)NC(C(C)O)C(=O)NC(=C(C)OC)c2nc(cs2)C(=O)NC2c4nc(cs4)C(=O)NC(COC(=O)c4c5c6c(cccc6n4O)COC(=O)C(OC4CC(C)(O)C(N(C)C)C(C)O4)C2OC5)c2nc-3cs2)n1)C(N)=O (stereo not drawn) |  |  | male cynomolgus monkey, plasma | intravenous, 9 mg/kg, single dose, infusion |  | Tmax | 31.8 min |
| CN(C)CCN(Cc1ccccc1)Cc1cccc(Br)c1 | Slc6a4 | ligand displacement, radioligand |  |  |  | Ki | 0.05 µM |
| NCCC(=O)O | SLC6A6 (Homo sapiens, UniProt P31641, F300A) |  |  |  |  | Kd | no binding |
| O[C@@H]1Cc2cccc(OCCF)c2C[C@H]1N1CCC(c2ccccc2)CC1 | SIGMAR1 | displacement, radioligand binding | HEK293 | together with: [3H](+)-pentazocine |  | Ki | 2.3 ± 0.4 µM |
| Fc1cccc(COc2ccc(Nc3ncnc4ccc(-c5cccc(-n6cccn6)c5)cc34)cc2Cl)c1 | Leishmania major | intracellular amastigote growth, luciferase | RAW264.7 macrophages |  |  | EC50 | > 15 µM |
| Cc1nn(-c2cccc(N)c2)c(=O)c2cnc(Nc3ccc(N4CCNCC4)cc3)nc12 | PIM1 (Homo sapiens, UniProt P11309) | kinase activity, inhibitor, SelectScreen kinase profiling |  |  |  | IC50 | > 10 µM |
| Cn1ccc2c(N3CCN(CCCCOc4ccc5c(c4)NC(=O)CC5)CC3)cccc21 | HTR2B (Homo sapiens, UniProt P41595) | cell-free assay, radioligand |  |  |  | Ki | 0.092 µM |
| CC1NCC(c2ccccc2Cl)c2c1[nH]c1ccccc21 (stereo not drawn) | Slc6a4 | ligand displacement, radioligand |  |  |  | Ki | 0.322 µM |
| O=C(NCCCCOP(=O)(O)OP(=O)(O)OP(=O)(O)O)OCC1c2ccccc2-c2ccccc21 | POLA1 (Homo sapiens, UniProt P09884) | enzyme activity, inhibitor, radiometric |  |  |  | Ki | 112 µM |
| C[C@]12COc3ccc(OCc4cccc5ccccc45)cc3[C@H]1CCN2 | SIGMAR1 | cell-free assay, radioligand |  |  |  | Ki | 0.0046 µM |
| CNCc1ccc(-c2cc(Cl)cc(Cl)c2)o1 | Slc6a4 | ligand displacement, radioligand |  |  |  | Ki | 0.0905 µM |
| Oc1cc(O)c2cc(O[C@@H]3OC[C@H](O)[C@H](O)[C@H]3O)c(-c3ccc(O)c(O)c3)[o+]c2c1 | PPO3 (Agaricus bisporus, UniProt C7FF04) | enzyme activity, inhibitor |  |  |  | Ki | 16.1 µM |
| CN1CC[C@@H](COc2cnc(C#N)cc2-c2ccn3nc(NC(=O)C4CC4)cc3c2)C1 | SIK1 (Homo sapiens, UniProt P57059) | enzyme activity, inhibitor, ADP detection |  |  |  | Ki | 0.0028 µM |
| Cc1ccc(C2CCN(C3Cc4ccccc4CC3O)CC2)cc1 (racemic) | SIGMAR1 | displacement, radioligand binding | HEK293 | together with: [3H](+)-pentazocine |  | Ki | 0.0057 ± 0.0026 µM |
| Nc1ncc(-c2nc(N3CCOCC3)nc(N3CCN(C(=O)CCC(=O)NCCCCCCCCC#Cc4cccc5c4C(=O)N(C4CCC(=O)NC4=O)C5=O)CC3)n2)c(C(F)F)n1 (stereo not drawn) | PIK3CA | ligand displacement, TR-FRET |  |  |  | Ki | 0.00245 µM |
| CCC1(CC)CC(=O)N(C2c3cc(C(=O)NC4c5ccccc5CC4O)ccc3OC2(C)COC)C(=N)N1 (stereo not drawn) | Cathepsin D (CTSD, Homo sapiens, UniProt P07339) | enzyme activity, inhibitor |  |  |  | Ki | 2.84 µM |
| Brc1ccc(C2NCCn3cccc32)cc1 (stereo not drawn) | Slc6a4 | ligand displacement, radioligand |  |  |  | Ki | 2.3 µM |
| CN1CCN(c2ccc3cnn(Cc4cccc5ccccc45)c3c2)CC1 | 5-hydroxytryptamine receptor 7, isoform 5-HT7b (HTR7, Homo sapiens, UniProt P34969) | binding, radioligand displacement | HEK293 membranes | 1 h, 37 °C, 5-HT7b isoform, together with: 0.6 nM [3H]-5-CT |  | Ki | 3.12 ± 0.422 µM |
| C[C@]12COc3ccc(Oc4ccccc4)cc3[C@H]1CCN2 | SIGMAR1 | cell-free assay, radioligand |  |  |  | Ki | 0.0019 µM |
| COC1CN([C@H]2CC[C@H]([C@@]3(C)Oc4c(Cl)cc(C(=O)NCc5c(SC)cc(C)[nH]c5=O)c(C)c4O3)CC2)C1 |  | RNA-seq, item: ANP32B mouse homolog | mouse, HT-1376 xenograft, whole blood | dose not given | reference: vehicle | log2 fold change | 0.323 |
| Nc1ncc(-c2nc(N3CCOCC3)nc(N3CCN(C(=O)CCC(=O)NCCCCCCCCNc4cccc5c4C(=O)N(C4CCC(=O)NC4=O)C5=O)CC3)n2)c(C(F)F)n1 (stereo not drawn) | PIK3CA | ligand displacement, TR-FRET |  |  |  | Ki | 0.00185 µM |
| c1ccc(Nc2ncnc3ccc(-c4cccc(N5CCOCC5)c4)cc23)cc1 | Leishmania major | intracellular amastigote growth, luciferase | RAW264.7 macrophages |  |  | EC50 | 26 µM |
| C[C@]12COc3ccc(OCc4ccc5ccccc5c4)cc3[C@H]1CCN2 | SIGMAR1 | cell-free assay, radioligand |  |  |  | Ki | 0.01 µM |
| O=C(CCC(=O)N1CCN(c2nc(N3CCOCC3)nc(-n3c(C(F)F)nc4ccccc43)n2)CC1)NCCCCCC(=O)Nc1cccc2c1C(=O)N(C1CCC(=O)NC1=O)C2=O (stereo not drawn) | PIK3CA | ligand displacement, TR-FRET |  |  |  | Ki | 0.0194 µM |
| CN(C)C(CNC(=O)c1ccc2c3c(cccc13)CC2)c1ccccc1 (stereo not drawn) | Slc6a4 | ligand displacement, radioligand |  |  |  | Ki | 0.127 µM |
| CCCCN1CCC(COC(=O)c2ccc(N)c(OCF)c2)CC1 [fluorine-18 labelled] | SIGMAR1 | NIMH-PDSP radioligand binding |  |  |  | Ki | 0.072 µM |

Some of these lines once more:
| SMILES | tested on | test | system | setting | scale | quantity | value |
| --- | --- | --- | --- | --- | --- | --- | --- |
| NCCC(=O)O | SLC6A6 (Homo sapiens, UniProt P31641, F300A) |  |  |  |  | Kd | no binding |
| C[C@]12COc3ccc(OCc4ccc5ccccc5c4)cc3[C@H]1CCN2 | SIGMAR1 | cell-free assay, radioligand |  |  |  | Ki | 0.01 µM |
| O=C(NCCCCOP(=O)(O)OP(=O)(O)OP(=O)(O)O)OCC1c2ccccc2-c2ccccc21 | POLA1 (Homo sapiens, UniProt P09884) | enzyme activity, inhibitor, radiometric |  |  |  | Ki | 112 µM |
| Nc1ncc(-c2nc(N3CCOCC3)nc(N3CCN(C(=O)CCC(=O)NCCCCCCCCC#Cc4cccc5c4C(=O)N(C4CCC(=O)NC4=O)C5=O)CC3)n2)c(C(F)F)n1 (stereo not drawn) | PIK3CA | ligand displacement, TR-FRET |  |  |  | Ki | 0.00245 µM |
